Published values collected from several papers.
Lines come from different studies, so protocols differ. Several values in a cell are separate wells, animals, samples, runs or records. Numbers after ± are the reported error.
SRD5A1: 3-oxo-5-alpha-steroid 4-dehydrogenase 1 (SRD5A1, Homo sapiens, UniProt P18405)
Sequence of UniProt P18405 (whole entry, looked up): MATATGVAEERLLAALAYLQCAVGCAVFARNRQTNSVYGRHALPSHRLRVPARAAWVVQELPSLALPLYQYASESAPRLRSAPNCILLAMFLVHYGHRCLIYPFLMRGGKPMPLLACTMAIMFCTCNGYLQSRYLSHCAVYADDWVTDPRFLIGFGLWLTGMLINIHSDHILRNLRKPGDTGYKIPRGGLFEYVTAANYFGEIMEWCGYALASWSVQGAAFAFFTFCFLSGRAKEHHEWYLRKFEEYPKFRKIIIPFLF
AGER: Advanced glycosylation end product-specific receptor (AGER, Homo sapiens, UniProt Q15109)
Sequence of UniProt Q15109 (whole entry, looked up): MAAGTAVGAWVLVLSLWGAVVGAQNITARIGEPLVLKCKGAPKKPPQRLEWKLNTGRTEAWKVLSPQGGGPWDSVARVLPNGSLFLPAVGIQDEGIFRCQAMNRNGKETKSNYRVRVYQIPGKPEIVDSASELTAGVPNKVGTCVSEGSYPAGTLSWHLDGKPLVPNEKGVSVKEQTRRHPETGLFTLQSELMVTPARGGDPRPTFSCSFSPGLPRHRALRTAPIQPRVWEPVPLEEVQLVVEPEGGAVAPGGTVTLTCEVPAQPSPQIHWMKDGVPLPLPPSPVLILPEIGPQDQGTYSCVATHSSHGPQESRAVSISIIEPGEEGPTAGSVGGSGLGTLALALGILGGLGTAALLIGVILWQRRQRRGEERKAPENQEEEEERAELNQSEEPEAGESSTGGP
JAK2: Tyrosine-protein kinase JAK2 (JAK2, Homo sapiens, UniProt O60674)
Sequence of UniProt O60674 (whole entry, looked up): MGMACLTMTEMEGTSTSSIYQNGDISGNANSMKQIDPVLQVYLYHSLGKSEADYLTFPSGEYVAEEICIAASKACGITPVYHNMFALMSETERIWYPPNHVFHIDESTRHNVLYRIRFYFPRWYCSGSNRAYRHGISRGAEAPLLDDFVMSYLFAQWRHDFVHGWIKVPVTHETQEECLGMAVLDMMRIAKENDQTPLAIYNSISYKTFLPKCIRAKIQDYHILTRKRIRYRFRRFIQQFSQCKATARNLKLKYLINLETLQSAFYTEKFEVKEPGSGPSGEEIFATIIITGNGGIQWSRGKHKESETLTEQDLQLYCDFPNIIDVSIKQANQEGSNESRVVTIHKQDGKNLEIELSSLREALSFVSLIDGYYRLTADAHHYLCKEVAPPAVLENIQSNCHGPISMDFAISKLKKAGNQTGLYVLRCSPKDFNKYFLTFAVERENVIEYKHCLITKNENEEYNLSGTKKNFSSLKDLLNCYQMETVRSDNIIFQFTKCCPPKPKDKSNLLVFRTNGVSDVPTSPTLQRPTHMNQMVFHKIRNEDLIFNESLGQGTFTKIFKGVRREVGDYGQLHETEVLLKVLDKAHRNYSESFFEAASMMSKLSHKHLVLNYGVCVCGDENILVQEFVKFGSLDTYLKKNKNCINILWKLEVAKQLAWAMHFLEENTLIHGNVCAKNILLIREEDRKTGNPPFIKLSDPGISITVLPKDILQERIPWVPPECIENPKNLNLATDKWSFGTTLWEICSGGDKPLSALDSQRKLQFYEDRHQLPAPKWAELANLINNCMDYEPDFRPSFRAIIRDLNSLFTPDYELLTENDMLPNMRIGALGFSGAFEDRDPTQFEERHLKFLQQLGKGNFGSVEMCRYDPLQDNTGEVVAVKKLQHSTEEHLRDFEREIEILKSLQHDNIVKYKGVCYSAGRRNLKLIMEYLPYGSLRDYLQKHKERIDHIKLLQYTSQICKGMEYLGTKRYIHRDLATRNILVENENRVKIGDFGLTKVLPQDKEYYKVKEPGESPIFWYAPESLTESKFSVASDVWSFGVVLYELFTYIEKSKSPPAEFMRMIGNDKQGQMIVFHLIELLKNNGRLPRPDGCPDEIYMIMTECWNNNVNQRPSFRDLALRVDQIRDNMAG
NR3C1: Glucocorticoid receptor (NR3C1, Homo sapiens, UniProt P04150)
Sequence of UniProt P04150 (whole entry, looked up): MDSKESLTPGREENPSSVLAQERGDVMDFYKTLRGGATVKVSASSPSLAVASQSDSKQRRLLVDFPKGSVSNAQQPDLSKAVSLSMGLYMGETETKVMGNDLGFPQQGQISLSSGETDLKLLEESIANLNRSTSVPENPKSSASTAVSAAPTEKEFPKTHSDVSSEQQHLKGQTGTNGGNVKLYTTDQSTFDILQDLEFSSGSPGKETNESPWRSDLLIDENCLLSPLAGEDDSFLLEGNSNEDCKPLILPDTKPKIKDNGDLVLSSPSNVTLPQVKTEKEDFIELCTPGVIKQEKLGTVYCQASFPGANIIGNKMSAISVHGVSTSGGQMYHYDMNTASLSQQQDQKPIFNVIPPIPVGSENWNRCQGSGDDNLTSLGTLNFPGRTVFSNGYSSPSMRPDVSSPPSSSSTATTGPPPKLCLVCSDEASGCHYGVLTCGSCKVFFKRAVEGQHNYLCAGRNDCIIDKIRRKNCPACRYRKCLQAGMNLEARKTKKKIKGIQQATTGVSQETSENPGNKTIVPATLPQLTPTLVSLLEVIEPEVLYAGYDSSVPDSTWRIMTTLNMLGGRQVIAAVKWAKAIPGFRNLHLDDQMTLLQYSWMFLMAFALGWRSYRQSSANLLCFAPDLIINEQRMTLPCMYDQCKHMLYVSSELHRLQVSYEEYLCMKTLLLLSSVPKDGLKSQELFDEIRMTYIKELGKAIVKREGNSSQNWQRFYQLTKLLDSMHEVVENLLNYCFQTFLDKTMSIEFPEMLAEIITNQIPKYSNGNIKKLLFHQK
CTSB: Cathepsin B (CTSB, Homo sapiens, UniProt P07858)
HTR3A: 5-hydroxytryptamine receptor 3A (HTR3A, Homo sapiens, UniProt P46098)
Sequence of UniProt P46098 (whole entry, looked up): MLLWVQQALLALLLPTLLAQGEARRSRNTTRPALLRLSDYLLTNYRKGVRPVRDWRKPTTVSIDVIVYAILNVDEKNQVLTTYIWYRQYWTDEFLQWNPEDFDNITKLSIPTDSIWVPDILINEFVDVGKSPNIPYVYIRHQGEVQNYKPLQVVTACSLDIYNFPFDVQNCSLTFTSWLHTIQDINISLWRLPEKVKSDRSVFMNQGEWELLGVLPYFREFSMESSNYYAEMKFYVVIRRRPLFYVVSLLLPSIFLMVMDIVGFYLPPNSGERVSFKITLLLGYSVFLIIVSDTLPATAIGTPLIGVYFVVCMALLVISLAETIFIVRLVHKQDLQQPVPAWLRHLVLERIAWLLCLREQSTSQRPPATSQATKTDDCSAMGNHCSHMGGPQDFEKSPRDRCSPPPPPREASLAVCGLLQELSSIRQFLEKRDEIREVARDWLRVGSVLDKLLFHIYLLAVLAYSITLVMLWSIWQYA
Sequence of UniProt P35368 (whole entry, looked up): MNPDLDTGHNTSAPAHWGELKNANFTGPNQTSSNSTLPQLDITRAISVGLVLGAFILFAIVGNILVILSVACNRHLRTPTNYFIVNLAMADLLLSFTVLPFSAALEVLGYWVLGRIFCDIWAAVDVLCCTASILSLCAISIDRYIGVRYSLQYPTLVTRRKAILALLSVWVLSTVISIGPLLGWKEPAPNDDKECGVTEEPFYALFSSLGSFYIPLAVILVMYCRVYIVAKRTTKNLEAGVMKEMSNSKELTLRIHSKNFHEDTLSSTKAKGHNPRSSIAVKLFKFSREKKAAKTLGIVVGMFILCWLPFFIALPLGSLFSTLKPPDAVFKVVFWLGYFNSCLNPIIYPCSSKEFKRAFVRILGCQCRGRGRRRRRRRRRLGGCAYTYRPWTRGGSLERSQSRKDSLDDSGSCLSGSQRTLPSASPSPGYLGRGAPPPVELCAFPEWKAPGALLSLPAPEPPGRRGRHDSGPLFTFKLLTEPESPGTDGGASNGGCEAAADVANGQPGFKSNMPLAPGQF
Sequence of UniProt O75063 (whole entry, looked up): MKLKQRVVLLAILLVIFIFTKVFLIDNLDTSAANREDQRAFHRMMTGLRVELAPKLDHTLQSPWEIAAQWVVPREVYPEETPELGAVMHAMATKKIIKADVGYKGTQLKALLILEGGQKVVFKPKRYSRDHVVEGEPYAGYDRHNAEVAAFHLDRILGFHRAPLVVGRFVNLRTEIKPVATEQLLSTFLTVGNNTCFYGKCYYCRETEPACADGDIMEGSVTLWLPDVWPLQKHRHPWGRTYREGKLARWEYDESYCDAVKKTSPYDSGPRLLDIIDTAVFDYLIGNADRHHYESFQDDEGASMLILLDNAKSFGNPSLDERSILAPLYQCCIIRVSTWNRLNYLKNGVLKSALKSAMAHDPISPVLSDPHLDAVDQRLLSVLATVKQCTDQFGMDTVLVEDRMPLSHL
Sequence of UniProt O14744 (whole entry, looked up): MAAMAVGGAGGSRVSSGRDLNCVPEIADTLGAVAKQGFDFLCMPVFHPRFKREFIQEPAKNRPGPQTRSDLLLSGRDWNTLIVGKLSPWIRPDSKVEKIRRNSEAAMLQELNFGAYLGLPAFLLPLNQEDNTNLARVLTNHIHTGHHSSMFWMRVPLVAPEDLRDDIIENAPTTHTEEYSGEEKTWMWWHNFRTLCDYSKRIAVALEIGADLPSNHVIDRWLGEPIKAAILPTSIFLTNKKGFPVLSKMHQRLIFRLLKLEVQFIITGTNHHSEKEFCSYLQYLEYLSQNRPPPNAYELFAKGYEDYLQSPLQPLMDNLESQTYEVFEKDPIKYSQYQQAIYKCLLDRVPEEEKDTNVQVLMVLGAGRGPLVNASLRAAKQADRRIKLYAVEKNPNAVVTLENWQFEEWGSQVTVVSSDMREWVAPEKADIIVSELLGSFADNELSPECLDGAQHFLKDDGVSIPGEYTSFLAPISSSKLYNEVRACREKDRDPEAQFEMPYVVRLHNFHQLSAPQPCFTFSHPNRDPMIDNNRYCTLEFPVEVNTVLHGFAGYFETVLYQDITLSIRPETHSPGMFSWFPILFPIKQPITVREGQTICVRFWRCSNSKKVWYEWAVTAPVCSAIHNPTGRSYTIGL
Sequence of UniProt P49720 (whole entry, looked up): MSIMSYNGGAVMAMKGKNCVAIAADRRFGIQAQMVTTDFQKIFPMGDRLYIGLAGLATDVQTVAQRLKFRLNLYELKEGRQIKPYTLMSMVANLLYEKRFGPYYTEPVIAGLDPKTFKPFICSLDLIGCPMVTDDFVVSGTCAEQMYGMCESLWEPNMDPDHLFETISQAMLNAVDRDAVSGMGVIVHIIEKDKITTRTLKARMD

COc1ccc(C(=O)Nc2c(-c3cccs3)nc3ccccn23)cc1 — inhibition (DRD5 (Homo sapiens, UniProt P21918); ligand displacement, radioligand; 10 µM): < 50%
CCCCCCCCCCCCCCN(O)C(=O)CCCCC[C@@H]1NC(=O)[C@H]([C@@H](C)CC)NC(=O)[C@H](Cc2ccccc2C(F)(F)F)NC(=O)CCSCc2cccc(n2)CSCCCNC1=O — inhibition (HDAC2 (Homo sapiens, UniProt Q92769); enzyme activity, inhibitor, fluorogenic; 30 µM): 50%
Cc1cccc(-n2nc(S)sc2=S)c1 — inhibition (Adenylate cyclase type 10 (Homo sapiens, UniProt Q96PN6); inhibitor; 10 µM): 58.1%
CC(=O)Oc1ccc(/C=C/C(=O)Oc2ccc(C(F)(F)F)c(C(F)(F)F)c2)cc1OC(C)=O — inhibition (SRD5A1; enzyme activity in cells, inhibitor; HaCaT; 15 µM): 24.2%
CC(=O)C12NC(C)(C)CC1(C)C(=O)C1=C2c2c(c3c4n2C(C)(C)CC2=C4C4(CC(C)(C)NC(C)(C4)C2=O)CC3(C)C)C(=O)C(C)(C)N1 (single isomer, unassigned; (-)) — inhibition (TRPC5 (Homo sapiens, UniProt Q9UL62); ion current, antagonist, whole-cell patch clamp; HEK293T; 10 µM): 10.91 ± 0.04%
O=C(Nc1ccc(F)cc1)Nc1ccc(C2=NNC(c3ccc(NC(=O)Nc4ccc(Cl)cc4)cc3)C2)cc1 (centres unmarked) — inhibition (AGER; 100 µM): 90%
Cc1cnc2nc1Nc1cccc(c1)COCCCCOCc1cc(ccc1OCCN1CCCC1)N2 — inhibition (JAK2; inhibitor, Z'-LYTE kinase; 1111.11 nM): 69.5% and 80.3% and 70%
C[Si](C)(C)C[C@@H](CN)CC(=O)O — inhibition (SSTR2 (Homo sapiens, UniProt P30874); ligand displacement, radioligand; 75 µM): 7%
Cc1[nH]nc2c1N=C(c1ccccc1Cl)c1cnc(N3CCOCC3)cc1N2 — inhibition (PDK2 (Homo sapiens, UniProt Q15119); enzyme activity, inhibitor; 0.5 µM): 18.4%
NC(=O)C[C@H]1CCc2sc3ncnc(O[C@H]4CC[C@H](N5CCOCC5)CC4)c3c21 — inhibition (TSSK6 (Homo sapiens, UniProt Q9BXA6); enzyme activity, inhibitor; 10 µM): -7%
COc1cc(/C=C/C(=O)Oc2ccc(C(F)(F)F)c(C(F)(F)F)c2)ccc1OC(C)=O — inhibition (SRD5A1; enzyme activity in cells, inhibitor; HaCaT; 50 µM): 15%
C[Si]1(C[C@H](CN)CC(=O)O)CCCC1 — inhibition (TRHR (Homo sapiens, UniProt P34981); ligand displacement, radioligand; 70 µM): -14%
COc1ccc(C#CC2=C[C@H]3C[C@@]4(OC(=O)C=C24)[C@H]2CC[C@H](C(OC)OC)N32)cc1 — inhibition (NR3C1; ligand displacement, radioligand; 10 µM): 94%
O=C(Nc1ccc(Cl)cc1)Nc1ccc(C2=NNC(c3ccc(Br)cc3)C2)cc1 (centres unmarked) — inhibition (AGER; 100 µM): 18%
O=C1c2sc(-c3ccc(N4CCC(CO)CC4)nc3F)nc2CCN1c1cccnc1 — inhibition (Cacna1b (Rattus norvegicus, UniProt Q02294); ligand displacement, radioligand; 1 µM): -2%
C=CC(=O)N1Cc2nc(-c3cc(-c4cc(Cl)cnc4Cl)c(F)cc3F)n(-c3ccncn3)c2C1 — inhibition (5'-AMP-activated protein kinase catalytic subunit alpha-2, with beta1 gamma3 (PRKAA2, Homo sapiens, UniProt P54646); kinome panel; 1 µM): -1.1%
CCn1cc(C(=O)O)c(=O)c2c(N)c(F)c(NC3CCCCC3)cc21 — inhibition (5'-AMP-activated protein kinase catalytic subunit alpha-2, with beta2 gamma1 (PRKAA2, Homo sapiens, UniProt P54646); kinase activity; 0.1 µM, with: ATP at Km): -8.3%
COc1cc2c(cc1OC)-c1cc3ccc(OC)c(OC)c3c[n+]1CC2.[Cl][Fe-]([Cl])([Cl])[Cl] — inhibition (lipase; enzyme activity; 0.8 mM, 30 min, 37 °C): 68.2%
Brc1ccccc1-c1nnc(CSc2nnnn2-c2ccccc2)o1 — inhibition (ADRA1B (Homo sapiens, UniProt P35368); ligand displacement, radioligand; 10 µM): 19%
Cc1cnc2nc1Nc1cccc(c1)COC/C=C/COCc1cc(ccc1OCCN1CCOCC1)N2 — inhibition (JAK2; inhibitor, Z'-LYTE kinase; 0.06104 nM): 16% and 15.4% and 12.1%
CCCCCCCCCCCCNC(=S)NCCCC[C@H](NC(=O)OCc1ccccc1)C(=O)N[C@@H](Cc1c[nH]c2ccccc12)C(=O)NC(C)C — inhibition (SIRT2 (Homo sapiens, UniProt Q8IXJ6); enzyme activity, inhibitor; 100 µM): 22%
CS(=O)(=O)Nc1cccc(-c2csc3cnc(Nc4ccc(N5CCN(CCCCCOc6cccc7c6C(=O)N(C6CCC(=O)NC6=O)C7=O)CC5)cc4)nc23)c1 (centres unmarked) — inhibition (FAM20B (Homo sapiens, UniProt O75063); probe labelling, inhibitor, KiNativ chemoproteomics; MOLT-4; 1 µM): -5.3%
O=C(Nc1ccc(Cl)cc1)Nc1ccc(C2=NNC(c3cccc(NC(=O)Nc4ccc(Cl)cc4)c3)C2)cc1 (centres unmarked) — inhibition (AGER; 100 µM): 89%
O=C1c2sc(-c3ccc(N4CCC(F)C4)nc3F)nc2CCN1c1cccnc1 (centres unmarked) — inhibition (NR3C1; ligand displacement, radioligand; 1 µM): -4%
CCCCCNC(=O)N1N=C(c2ccc(Cl)cc2)CC1c1ccc(NC(=O)Nc2ccc(F)cc2)cc1 (centres unmarked) — inhibition (AGER; 100 µM): 34%
CN(C)C/C=C/C(=O)Nc1ccc2nc(NCCCCCN(C)C)nc(NCCCCCCN(C)C)c2c1 — inhibition (PRMT5 (Homo sapiens, UniProt O14744); enzyme activity, inhibitor, radiometric; 50 µM): 11%
C[C@@H](O)[C@H](NC(=O)c1ccc(OCc2ccccc2)cc1)C(=O)N[C@@H](CCc1ccccc1)C(=O)NCc1ccccc1Cl — inhibition (CTSB; enzyme activity, inhibitor; 100 µM): -3%
CN(Cc1ccc(/C=C/C(=O)NO)cc1)CC12CC3CC(CC(C3)C1)C2 — inhibition (human B2 receptor; agonist radioligand binding; 0.05 µM): 6%
Cc1ccc(CN(C)C(=O)C(CCc2ccccc2)NC(=O)C(NC(=O)c2ccc(OCc3ccccc3)cc2)C(C)O)cc1 (centres unmarked) — inhibition (CTSB; enzyme activity, inhibitor; 100 µM): 20%
Cc1ccnc(OC[C@H]2CN(CCN3CCc4ccccc43)CCO2)c1 — inhibition (HTR3A; radioligand binding; concentration not given, with: [3H]GR65630): 20.9%
Cc1ccc(N(O)/N=N/c2ccc(S(=O)(=O)Nc3nccs3)cc2)cc1 — inhibition (α-glucosidase, rat intestine; enzyme activity; 300 µg/mL, with: 4-nitrophenyl α-D-glucopyranoside): 47.5 ± 0.01%
CC(C)C[C@H](NC(=O)[C@H](Cc1ccccc1)NC(=O)[C@H](CCONC(=N)N)NC(=O)[C@H](C)N)B(O)O — inhibition (Proteasome subunit beta type-3/PSMB7 (Homo sapiens, UniProt P49720+Q99436); trypsin-like activity, inhibitor; human constitutive proteasome; 5 nM, with: Boc-LRR-AMC): inhibited
CC(C)Cn1c(SCC(=O)N2CCc3ccccc3C2)nc2cc(Cl)ccc2c1=O — inhibition (HTR3A; ligand displacement, radioligand; 10 µM): 2%
COCC(=O)N1CCc2cc(-c3csc(NC(=O)c4cc(OC)cc(OC)c4)n3)ccc21 — inhibition (nicotinic acetylcholine receptor, human; radioligand binding; 10 µM): 0%
Cc1cnc2nc1Nc1cccc(c1)COCc1cc(ccc1OCCN1CCOCC1)N2 — inhibition (JAK2; inhibitor, Z'-LYTE kinase; 1000 nM): 98.1% and 98.3% and 96.7%

Excerpt of the above:
CCCCCCCCCCCCNC(=S)NCCCC[C@H](NC(=O)OCc1ccccc1)C(=O)N[C@@H](Cc1c[nH]c2ccccc12)C(=O)NC(C)C — inhibition (SIRT2 (Homo sapiens, UniProt Q8IXJ6); enzyme activity, inhibitor; 100 µM): 22%
CN(C)C/C=C/C(=O)Nc1ccc2nc(NCCCCCN(C)C)nc(NCCCCCCN(C)C)c2c1 — inhibition (PRMT5 (Homo sapiens, UniProt O14744); enzyme activity, inhibitor, radiometric; 50 µM): 11%
C[C@@H](O)[C@H](NC(=O)c1ccc(OCc2ccccc2)cc1)C(=O)N[C@@H](CCc1ccccc1)C(=O)NCc1ccccc1Cl — inhibition (CTSB; enzyme activity, inhibitor; 100 µM): -3%
COc1ccc(C#CC2=C[C@H]3C[C@@]4(OC(=O)C=C24)[C@H]2CC[C@H](C(OC)OC)N32)cc1 — inhibition (NR3C1; ligand displacement, radioligand; 10 µM): 94%
